{"data": "Results gathered from unrelated publications", "note": "Each line is one published result; not all experiments were run side by side.", "UniProt Q08722, sequence (whole entry, looked up)": "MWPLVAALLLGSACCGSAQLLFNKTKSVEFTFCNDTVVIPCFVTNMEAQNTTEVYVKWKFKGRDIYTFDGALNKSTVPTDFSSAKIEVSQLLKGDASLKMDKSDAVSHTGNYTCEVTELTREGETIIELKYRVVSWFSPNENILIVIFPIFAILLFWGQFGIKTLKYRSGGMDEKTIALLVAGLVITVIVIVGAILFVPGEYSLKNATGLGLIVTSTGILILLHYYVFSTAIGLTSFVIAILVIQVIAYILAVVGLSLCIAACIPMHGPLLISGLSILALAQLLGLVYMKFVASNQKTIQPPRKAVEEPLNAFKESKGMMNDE", "UniProt Q14789, sequence (whole entry, looked up)": "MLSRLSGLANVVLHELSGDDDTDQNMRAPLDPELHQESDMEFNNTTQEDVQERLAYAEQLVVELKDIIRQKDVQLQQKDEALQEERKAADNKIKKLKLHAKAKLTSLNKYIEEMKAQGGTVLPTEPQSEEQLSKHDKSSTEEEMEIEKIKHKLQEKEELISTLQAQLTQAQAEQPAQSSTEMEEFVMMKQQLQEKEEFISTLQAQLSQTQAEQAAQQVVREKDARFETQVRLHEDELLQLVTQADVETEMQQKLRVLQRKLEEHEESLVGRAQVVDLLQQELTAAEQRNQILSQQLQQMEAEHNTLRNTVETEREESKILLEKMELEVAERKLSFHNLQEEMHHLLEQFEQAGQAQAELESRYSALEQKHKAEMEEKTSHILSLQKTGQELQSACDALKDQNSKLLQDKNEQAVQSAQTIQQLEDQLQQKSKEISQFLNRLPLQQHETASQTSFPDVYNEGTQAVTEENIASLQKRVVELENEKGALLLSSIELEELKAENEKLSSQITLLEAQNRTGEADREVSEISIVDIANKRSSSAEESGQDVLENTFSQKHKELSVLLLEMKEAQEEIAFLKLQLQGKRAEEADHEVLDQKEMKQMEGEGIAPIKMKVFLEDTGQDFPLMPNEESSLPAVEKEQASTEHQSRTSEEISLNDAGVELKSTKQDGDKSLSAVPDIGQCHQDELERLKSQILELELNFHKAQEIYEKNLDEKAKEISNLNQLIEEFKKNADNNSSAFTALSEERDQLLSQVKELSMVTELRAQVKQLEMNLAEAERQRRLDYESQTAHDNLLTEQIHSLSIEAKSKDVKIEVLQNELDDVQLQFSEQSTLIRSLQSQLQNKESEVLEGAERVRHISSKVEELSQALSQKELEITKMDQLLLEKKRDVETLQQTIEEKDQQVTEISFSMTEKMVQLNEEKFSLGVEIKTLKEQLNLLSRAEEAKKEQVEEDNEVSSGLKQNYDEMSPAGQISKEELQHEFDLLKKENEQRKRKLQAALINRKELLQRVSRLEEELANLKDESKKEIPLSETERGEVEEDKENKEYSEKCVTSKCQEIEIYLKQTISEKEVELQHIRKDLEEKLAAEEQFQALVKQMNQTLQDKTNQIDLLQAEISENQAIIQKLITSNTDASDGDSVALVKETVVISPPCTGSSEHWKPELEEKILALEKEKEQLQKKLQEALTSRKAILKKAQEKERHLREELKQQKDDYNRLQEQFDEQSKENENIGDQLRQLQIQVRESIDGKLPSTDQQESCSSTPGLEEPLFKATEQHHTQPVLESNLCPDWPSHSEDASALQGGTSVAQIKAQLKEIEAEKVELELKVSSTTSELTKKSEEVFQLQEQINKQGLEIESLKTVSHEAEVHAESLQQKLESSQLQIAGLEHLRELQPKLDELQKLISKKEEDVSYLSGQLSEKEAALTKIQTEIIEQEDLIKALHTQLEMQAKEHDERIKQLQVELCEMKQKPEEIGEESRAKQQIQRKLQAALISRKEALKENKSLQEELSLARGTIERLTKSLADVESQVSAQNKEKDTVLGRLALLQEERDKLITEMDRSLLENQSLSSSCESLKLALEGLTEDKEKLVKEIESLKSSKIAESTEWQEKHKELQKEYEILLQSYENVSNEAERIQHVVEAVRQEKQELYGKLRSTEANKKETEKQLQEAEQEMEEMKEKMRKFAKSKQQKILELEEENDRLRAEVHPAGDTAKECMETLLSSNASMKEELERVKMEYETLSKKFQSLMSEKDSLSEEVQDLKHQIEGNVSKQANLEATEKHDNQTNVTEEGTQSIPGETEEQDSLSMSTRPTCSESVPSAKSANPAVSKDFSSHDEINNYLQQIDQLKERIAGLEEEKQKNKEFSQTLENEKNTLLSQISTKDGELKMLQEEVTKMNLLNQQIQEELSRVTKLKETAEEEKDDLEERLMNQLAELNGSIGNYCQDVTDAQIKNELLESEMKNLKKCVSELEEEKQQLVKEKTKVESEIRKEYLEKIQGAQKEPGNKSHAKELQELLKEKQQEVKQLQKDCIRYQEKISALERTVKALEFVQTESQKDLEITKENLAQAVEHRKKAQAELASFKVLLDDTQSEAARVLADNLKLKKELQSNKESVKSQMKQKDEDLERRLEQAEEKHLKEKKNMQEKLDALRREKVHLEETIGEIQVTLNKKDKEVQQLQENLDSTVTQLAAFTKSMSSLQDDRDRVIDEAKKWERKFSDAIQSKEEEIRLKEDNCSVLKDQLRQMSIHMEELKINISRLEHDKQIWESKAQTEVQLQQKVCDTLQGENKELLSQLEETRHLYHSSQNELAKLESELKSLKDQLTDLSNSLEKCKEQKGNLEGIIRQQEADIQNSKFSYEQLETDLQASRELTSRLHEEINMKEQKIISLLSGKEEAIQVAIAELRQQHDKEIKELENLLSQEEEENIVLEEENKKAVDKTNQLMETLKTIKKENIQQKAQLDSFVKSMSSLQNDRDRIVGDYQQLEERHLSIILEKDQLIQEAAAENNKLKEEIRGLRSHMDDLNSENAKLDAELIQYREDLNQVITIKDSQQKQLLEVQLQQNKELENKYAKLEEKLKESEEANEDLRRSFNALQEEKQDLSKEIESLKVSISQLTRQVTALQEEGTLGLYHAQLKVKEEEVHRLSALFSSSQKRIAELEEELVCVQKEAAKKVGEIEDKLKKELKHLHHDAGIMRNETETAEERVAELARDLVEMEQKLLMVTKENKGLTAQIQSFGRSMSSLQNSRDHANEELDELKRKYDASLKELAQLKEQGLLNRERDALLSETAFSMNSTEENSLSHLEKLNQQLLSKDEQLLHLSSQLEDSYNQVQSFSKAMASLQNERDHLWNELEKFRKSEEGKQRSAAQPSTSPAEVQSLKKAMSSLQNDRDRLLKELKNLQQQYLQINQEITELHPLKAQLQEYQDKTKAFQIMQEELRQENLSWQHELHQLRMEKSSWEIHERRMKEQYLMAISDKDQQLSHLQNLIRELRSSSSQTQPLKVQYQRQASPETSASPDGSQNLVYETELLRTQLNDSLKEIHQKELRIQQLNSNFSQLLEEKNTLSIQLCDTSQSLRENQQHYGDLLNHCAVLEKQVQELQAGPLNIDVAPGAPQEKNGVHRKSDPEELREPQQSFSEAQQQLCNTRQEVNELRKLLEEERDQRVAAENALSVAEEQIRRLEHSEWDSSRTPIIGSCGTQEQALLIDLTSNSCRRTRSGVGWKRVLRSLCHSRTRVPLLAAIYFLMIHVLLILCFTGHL", "UniProt Q00839, sequence (whole entry, looked up)": "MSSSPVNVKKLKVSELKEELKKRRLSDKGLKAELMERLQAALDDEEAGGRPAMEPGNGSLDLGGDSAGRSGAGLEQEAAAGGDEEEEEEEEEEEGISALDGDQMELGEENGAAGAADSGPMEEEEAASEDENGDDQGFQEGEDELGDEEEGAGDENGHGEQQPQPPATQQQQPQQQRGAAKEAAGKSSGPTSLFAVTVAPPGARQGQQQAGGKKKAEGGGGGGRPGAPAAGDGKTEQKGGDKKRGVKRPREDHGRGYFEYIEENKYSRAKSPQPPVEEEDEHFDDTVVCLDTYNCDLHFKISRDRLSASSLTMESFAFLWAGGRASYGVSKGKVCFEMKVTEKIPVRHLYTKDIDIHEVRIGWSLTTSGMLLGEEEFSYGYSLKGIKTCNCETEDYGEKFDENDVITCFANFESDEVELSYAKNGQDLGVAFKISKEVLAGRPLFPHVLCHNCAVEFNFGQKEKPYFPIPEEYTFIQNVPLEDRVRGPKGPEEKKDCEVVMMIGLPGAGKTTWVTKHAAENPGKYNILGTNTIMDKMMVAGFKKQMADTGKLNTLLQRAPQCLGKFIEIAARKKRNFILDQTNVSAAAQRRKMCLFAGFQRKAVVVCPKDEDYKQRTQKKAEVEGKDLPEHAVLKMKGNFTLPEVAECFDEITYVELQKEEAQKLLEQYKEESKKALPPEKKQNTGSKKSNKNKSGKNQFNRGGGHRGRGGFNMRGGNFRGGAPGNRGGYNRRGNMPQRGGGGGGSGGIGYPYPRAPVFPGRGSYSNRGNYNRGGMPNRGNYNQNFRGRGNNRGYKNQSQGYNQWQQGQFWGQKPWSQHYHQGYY", "UniProt Q9SXB6, sequence (whole entry, looked up)": "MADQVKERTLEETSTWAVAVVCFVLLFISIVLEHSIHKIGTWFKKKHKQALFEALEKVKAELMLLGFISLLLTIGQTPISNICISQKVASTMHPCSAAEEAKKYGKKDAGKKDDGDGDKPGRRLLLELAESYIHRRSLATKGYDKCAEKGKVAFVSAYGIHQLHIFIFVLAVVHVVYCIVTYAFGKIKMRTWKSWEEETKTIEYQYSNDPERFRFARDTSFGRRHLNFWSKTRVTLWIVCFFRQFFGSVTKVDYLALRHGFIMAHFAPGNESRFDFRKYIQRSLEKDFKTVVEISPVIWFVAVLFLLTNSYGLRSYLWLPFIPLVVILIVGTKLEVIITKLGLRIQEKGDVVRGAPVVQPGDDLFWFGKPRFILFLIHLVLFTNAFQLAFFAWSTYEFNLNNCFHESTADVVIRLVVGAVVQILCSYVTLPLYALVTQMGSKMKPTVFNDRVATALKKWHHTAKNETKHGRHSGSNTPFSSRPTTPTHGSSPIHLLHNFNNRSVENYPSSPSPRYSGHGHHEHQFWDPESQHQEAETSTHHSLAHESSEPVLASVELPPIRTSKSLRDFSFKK"}
{"Molecule": "PMESGICTIV", "target or system": "human MAGI1-3/6 PDZ construct (MBP fusion)", "assay": "automated holdup", "system": "peptide, crude extract", "setting": "concentration not given, uncorrected, unit not given", "scale": "baseline: biotin control resin, higher = stronger binding", "quantity": "binding intensity", "value": 0.119}
{"Molecule": "SUPT6H, Cy3-labelled Spy tag (Homo sapiens, UniProt Q7KZ85)", "target or system": "RNA polymerase II elongation complex, P-TEFb phosphorylated (Sus scrofa)", "assay": "single-molecule fluorescence colocalisation", "setting": "phosphorylated", "quantity": "residence time", "value": "412 s"}
{"Molecule": "SIRPA IgV domain-Fc fusion, bivalent (Homo sapiens)", "target or system": "CD47 (Homo sapiens, UniProt Q08722)", "assay": "flow cytometry", "system": "H9", "setting": "30 min, apparent, bivalent", "quantity": "EC50", "value": "62.6 nM"}
{"Molecule": "SVWLRKETRV", "target or system": "human SCRIB PDZ3-4 tandem (MBP fusion)", "assay": "automated holdup", "system": "peptide, crude extract", "setting": "concentration not given, corrected by standard peak, unit not given", "scale": "baseline: biotin control resin, higher = stronger binding", "quantity": "binding intensity", "value": 0.725}
{"Molecule": "FGA (Homo sapiens, UniProt P02671)", "target or system": "KIF15 (Homo sapiens, UniProt Q9NS87)", "assay": "cross-linking MS", "setting": "added: DSSO", "quantity": "cross-linked residues", "value": "K238 to K559"}
{"Molecule": "HNRNPU (Homo sapiens, UniProt Q00839)", "target or system": "GOLGB1 (Homo sapiens, UniProt Q14789)", "assay": "cross-linking MS", "system": "cells", "setting": "added: iqPIR", "quantity": "cross-linked residues", "value": "K592 to K2433"}
{"Molecule": "ALB (Homo sapiens, UniProt P02768)", "target or system": "PRDM14 (Homo sapiens, UniProt Q9GZV8)", "assay": "cross-linking MS", "setting": "added: DSSO", "quantity": "cross-linked residues", "value": "K198 to K443"}
{"Molecule": "PTHrP fragment, unlabeled", "target or system": "PTH1R (Homo sapiens, UniProt Q03431)", "assay": "competition with tracer, competitor, BRET", "system": "cells", "setting": "in cells, added: tracer E35K TMR 70 nM", "quantity": "IC50", "value": "80 nM"}
{"Molecule": "SLC4A1 (Homo sapiens, UniProt P02730)", "target or system": "HBB (Homo sapiens, UniProt P68871)", "assay": "cross-linking MS", "setting": "added: DSSO or DMTMM", "quantity": "cross-linked residues", "value": "D23 to K9"}
{"Molecule": "CAM2 (Arabidopsis thaliana, UniProt P0DH97)", "target or system": "MLO2 439-573 (Arabidopsis thaliana, UniProt Q9SXB6)", "assay": "split luciferase complementation", "scale": "higher = stronger interaction", "quantity": "luciferase activity", "value": "46000 units/mm^2"}
{"Molecule": "TF (Homo sapiens, UniProt P02787)", "target or system": "KRT8 (Homo sapiens, UniProt P05787)", "assay": "cross-linking MS", "setting": "added: DSSO", "quantity": "cross-linked residues", "value": "K215 to K464"}
{"Molecule": "PKLPPKTYKREH (SOS1 proline-rich peptide, 1303-1314)", "target or system": "GRB2 1-58 (Homo sapiens, UniProt P62993)", "assay": "NMR titration", "system": "peptide", "quantity": "chemical shift perturbation", "value": "0.11 ppm"}
{"Molecule": "FGB (Homo sapiens, UniProt P02675)", "target or system": "RBM15B (Homo sapiens, UniProt Q8NDT2)", "assay": "cross-linking MS", "setting": "added: DSSO", "quantity": "cross-linked residues", "value": "K51 to K706"}
{"Molecule": "PDE4D3/GFP (Homo sapiens)", "target or system": "AKAP6 (Homo sapiens, UniProt Q13023-1)", "assay": "co-IP", "system": "HEK293", "setting": "without stimulation, not purified", "scale": "baseline: mAKAP precipitated, higher = more PDE4D3 bound", "quantity": "relative binding", "value": 2.85}
{"note": "Repeated from above:"}
{"Molecule": "SUPT6H, Cy3-labelled Spy tag (Homo sapiens, UniProt Q7KZ85)", "target or system": "RNA polymerase II elongation complex, P-TEFb phosphorylated (Sus scrofa)", "assay": "single-molecule fluorescence colocalisation", "setting": "phosphorylated", "quantity": "residence time", "value": "412 s"}
